{"data": "Published values from different studies", "note": "Numbered parts are unrelated; each lists some results of a single study.", "UniProt P14416, sequence (whole entry, looked up)": "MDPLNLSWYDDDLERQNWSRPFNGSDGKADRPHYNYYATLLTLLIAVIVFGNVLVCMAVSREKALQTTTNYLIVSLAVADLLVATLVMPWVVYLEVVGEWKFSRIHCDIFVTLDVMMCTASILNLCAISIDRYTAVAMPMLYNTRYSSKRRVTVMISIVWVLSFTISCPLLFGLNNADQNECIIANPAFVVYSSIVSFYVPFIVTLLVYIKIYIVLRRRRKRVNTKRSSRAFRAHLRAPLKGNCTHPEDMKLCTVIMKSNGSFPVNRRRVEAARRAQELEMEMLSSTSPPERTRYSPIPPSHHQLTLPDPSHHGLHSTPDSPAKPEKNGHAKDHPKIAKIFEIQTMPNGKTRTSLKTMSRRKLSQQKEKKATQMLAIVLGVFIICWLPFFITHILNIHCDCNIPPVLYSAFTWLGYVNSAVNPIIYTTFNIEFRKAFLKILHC", "UniProt P35368, sequence (whole entry, looked up)": "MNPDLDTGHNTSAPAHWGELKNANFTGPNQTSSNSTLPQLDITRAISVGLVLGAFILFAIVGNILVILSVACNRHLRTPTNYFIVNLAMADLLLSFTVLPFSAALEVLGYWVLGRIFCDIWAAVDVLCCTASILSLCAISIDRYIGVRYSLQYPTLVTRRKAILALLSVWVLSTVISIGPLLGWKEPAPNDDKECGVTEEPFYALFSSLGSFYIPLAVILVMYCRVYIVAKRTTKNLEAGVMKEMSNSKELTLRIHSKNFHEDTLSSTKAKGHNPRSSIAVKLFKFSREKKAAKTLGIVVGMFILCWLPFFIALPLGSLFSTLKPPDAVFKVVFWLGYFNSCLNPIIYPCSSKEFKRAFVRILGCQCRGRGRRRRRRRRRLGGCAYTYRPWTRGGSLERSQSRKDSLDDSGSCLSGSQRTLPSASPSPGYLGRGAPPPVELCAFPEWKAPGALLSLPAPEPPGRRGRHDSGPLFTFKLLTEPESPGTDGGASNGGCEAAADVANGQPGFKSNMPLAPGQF", "UniProt P35348, sequence (whole entry, looked up)": "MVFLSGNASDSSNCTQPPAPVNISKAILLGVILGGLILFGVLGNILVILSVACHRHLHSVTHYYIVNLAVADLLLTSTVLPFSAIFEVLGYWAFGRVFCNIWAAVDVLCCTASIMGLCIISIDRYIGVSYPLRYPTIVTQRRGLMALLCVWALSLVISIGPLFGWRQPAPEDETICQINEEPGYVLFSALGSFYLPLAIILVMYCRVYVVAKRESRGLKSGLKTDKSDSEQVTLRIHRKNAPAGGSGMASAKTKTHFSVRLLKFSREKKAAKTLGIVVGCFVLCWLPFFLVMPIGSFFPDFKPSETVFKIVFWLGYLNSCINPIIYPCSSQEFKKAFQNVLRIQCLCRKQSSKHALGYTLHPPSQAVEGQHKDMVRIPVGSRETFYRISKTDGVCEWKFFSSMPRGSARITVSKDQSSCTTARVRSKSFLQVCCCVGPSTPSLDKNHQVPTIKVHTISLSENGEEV", "UniProt P08173, sequence (whole entry, looked up)": "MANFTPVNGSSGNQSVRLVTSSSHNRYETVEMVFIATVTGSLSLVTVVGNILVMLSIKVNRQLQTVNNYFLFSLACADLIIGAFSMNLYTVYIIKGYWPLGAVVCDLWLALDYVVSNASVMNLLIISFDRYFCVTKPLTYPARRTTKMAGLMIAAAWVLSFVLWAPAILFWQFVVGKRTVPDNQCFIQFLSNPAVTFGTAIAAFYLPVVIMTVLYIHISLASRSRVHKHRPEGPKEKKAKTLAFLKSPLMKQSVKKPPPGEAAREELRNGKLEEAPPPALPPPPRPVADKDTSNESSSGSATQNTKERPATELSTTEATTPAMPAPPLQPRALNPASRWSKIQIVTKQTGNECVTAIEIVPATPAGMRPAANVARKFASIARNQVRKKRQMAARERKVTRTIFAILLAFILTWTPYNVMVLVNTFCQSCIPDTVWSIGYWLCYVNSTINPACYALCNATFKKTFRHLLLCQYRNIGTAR", "UniProt P21728, sequence (whole entry, looked up)": "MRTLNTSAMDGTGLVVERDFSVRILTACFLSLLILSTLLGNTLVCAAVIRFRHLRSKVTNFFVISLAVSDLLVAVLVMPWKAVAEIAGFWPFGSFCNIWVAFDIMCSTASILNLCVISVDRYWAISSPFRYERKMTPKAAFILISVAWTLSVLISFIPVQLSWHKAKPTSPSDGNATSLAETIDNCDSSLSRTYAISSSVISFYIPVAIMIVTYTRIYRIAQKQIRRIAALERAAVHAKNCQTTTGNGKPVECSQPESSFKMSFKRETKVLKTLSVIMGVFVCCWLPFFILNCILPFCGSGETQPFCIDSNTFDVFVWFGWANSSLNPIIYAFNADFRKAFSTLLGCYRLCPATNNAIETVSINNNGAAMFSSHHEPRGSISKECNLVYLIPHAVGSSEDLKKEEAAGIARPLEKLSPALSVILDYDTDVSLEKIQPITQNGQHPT", "UniProt P35367, sequence (whole entry, looked up)": "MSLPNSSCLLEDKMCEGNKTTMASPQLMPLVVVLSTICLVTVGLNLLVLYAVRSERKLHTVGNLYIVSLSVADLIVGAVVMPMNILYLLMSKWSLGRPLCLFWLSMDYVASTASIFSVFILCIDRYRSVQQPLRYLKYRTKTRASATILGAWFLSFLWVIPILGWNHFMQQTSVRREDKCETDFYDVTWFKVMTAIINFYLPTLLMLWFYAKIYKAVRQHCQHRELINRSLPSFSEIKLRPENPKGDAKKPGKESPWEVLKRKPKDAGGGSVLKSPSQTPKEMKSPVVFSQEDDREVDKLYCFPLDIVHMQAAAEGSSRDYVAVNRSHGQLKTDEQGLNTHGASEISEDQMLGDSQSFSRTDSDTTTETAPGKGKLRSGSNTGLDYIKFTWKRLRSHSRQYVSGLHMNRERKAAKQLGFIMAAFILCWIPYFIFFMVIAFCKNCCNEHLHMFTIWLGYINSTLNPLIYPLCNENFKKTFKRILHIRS"}
{"data": "Series 1", "Structure (SMILES)": "C[C@@H](NC(=O)Nc1cc2[nH]ncc2c(CO)n1)c1ccccc1", "observed": "cell-free assay", "tested at": "10 µM"}
{"target": "Histamine H1 receptor (HRH1, Homo sapiens, UniProt P35367)", "inhibition": "-7.28%"}
{"target": "Muscarinic acetylcholine receptor M4 (CHRM4, Homo sapiens, UniProt P08173)", "inhibition": "-0.568%"}
{"target": "Alpha-1B adrenergic receptor (ADRA1B, Homo sapiens, UniProt P35368)", "inhibition": "-2.72%"}
{"target": "D(2) dopamine receptor (DRD2, Homo sapiens, UniProt P14416)", "inhibition": "-13.1%"}
{"target": "D(1A) dopamine receptor (DRD1, Homo sapiens, UniProt P21728)", "inhibition": "-3.5%"}
{"target": "Alpha-1A adrenergic receptor (ADRA1A, Homo sapiens, UniProt P35348)", "inhibition": "16.1%"}
{"data": "Series 2", "target": "Interleukin-1 receptor-associated kinase 4 (IRAK4, Homo sapiens, UniProt Q9NWZ3)", "observed": "enzyme activity", "action": "inhibitor", "tested at": "0.5 µM", "relative to": "control", "UniProt Q9NWZ3, sequence (whole entry, looked up)": "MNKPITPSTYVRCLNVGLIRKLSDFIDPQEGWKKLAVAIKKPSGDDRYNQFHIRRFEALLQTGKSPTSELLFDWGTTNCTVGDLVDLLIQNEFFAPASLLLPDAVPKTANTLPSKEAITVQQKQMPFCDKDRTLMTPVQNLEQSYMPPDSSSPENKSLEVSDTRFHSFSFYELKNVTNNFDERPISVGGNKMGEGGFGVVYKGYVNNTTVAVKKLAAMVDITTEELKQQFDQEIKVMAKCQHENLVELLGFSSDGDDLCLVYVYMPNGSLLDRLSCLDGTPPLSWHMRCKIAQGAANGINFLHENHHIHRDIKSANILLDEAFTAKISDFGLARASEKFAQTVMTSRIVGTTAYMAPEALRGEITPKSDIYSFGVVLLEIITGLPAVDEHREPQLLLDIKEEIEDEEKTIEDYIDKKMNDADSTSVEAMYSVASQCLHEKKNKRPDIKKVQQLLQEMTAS"}
{"Compound": "COc1ccc(C(=O)Nc2sc3c(c2C(N)=O)CCCC3)cc1OC", "remaining activity": "94.8%"}
{"Compound": "COc1cc2ncnc(Nc3ccc(Oc4ccccc4)cc3)c2cc1OC", "remaining activity": "112%"}
{"Compound": "O=C1NC(=O)C(c2cn(CCCn3ccnc3)c3ccccc23)=C1Nc1ccccc1", "remaining activity": "89.5%"}
{"Compound": "CO[C@H]1C[C@@H]2CC[C@@H](C)[C@@](O)(O2)C(=O)C(=O)N2CCCC[C@H]2C(=O)O[C@H]([C@H](C)C[C@@H]2CC[C@@H](O)[C@H](OC)C2)CC(=O)[C@H](C)/C=C(\\C)[C@@H](O)[C@@H](OC)C(=O)[C@H](C)C[C@H](C)/C=C/C=C/C=C/1C", "remaining activity": "123%"}
{"Compound": "COc1ccc(CNC(=O)Nc2ncc([N+](=O)[O-])s2)cc1", "remaining activity": "101%"}
{"Compound": "O=C(Nc1cccc(Nc2cc(Nc3cccc(C(F)(F)F)c3)ncn2)c1)C1CC1", "remaining activity": "104%"}
{"Compound": "Nc1[nH]nc2nc3ccccc3nc12", "remaining activity": "94.7%"}
{"Compound": "Oc1ccc(-c2nc(-c3ccncc3)c(-c3ccc(F)cc3)[nH]2)cc1", "remaining activity": "124%"}
{"Compound": "OCC(O)CCON=C1C(c2c(O)[nH]c3ccccc23)=Nc2ccccc21 (stereo not shown)", "remaining activity": "60.3%"}
{"Compound": "COc1cc2ncnc(Nc3ccc(F)c(Cl)c3)c2cc1OCCCN1CCOCC1", "remaining activity": "78.8%"}
{"Compound": "COc1cc2nccc(Oc3ccc(NC(=S)NC(=O)c4ccccc4C)cc3)c2cc1OC", "remaining activity": "82.4%"}
{"Compound": "O=S(=O)(c1cccc2cnccc12)N1CCCNCC1", "remaining activity": "108%"}
{"Compound": "CCOC(=O)c1c(C)[nH]c(/C=C2\\C(=O)Nc3ccccc32)c1C", "remaining activity": "96.8%"}
{"Compound": "Nc1ncnc2n[nH]c(Nc3ccc(F)cc3)c12", "remaining activity": "88.3%"}
{"Compound": "C#Cc1cccc(Nc2ncnc3cc(OCCOC)c(OCCOC)cc23)c1", "remaining activity": "93.8%"}
{"data": "Series 3", "target": "RNA binding protein fox-1 homolog 2, RRM domain, GST-SBP tag (RBFOX2, Homo sapiens, UniProt O43251-10, residues 100-194)", "technique": "RNA Bind-n-Seq", "molecule type": "RNA", "medium": "in vitro", "tested at": "365 nM", "setting": "natural RNA segment, single round, ends assumed", "relative to": "no-protein control", "direction": "higher = stronger binding", "Target sequence (chain)": "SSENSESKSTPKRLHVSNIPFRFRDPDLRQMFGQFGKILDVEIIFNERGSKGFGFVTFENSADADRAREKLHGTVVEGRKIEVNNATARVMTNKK"}
{"Sequence": "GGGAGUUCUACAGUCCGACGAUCUUUUGGUGAUUUCAAUUGACUUUGUUUCUUUUAGGUACUGUUUUUAUUGUUUUACUUAGAAUAUUAGGAUUUUUUUUCACUAAUUUUUCUGCCAGUGAAGGAAAAUGGUCUGGAAUUCUCGGGUGCCAA", "RBNS enrichment (R)": 0.626}
{"Sequence": "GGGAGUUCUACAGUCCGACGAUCUGGGGUUUGGAUUUCCCCAGGAAGAUGGAGAAUGGAAUACUCACUCUUGGGUCUAAUCUUUCCCCUUGACCCAGAACUUCCUCCCCACAAAAAUGCCUUUAAAAACCUUCUGGAAUUCUCGGGUGCCAA", "RBNS enrichment (R)": 0.809}
{"Sequence": "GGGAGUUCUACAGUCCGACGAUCACGGUGUCCGUGUUGUUGCUUUCCCACCCUGCAGCGCACUGGACUGAAGAGCUUCCCUCUUCCUACUGCAGCAUGAACUGCAAGCUCCCCUCAGCCCAUCUUGCUCCCUCUGGAAUUCUCGGGUGCCAA", "RBNS enrichment (R)": 1.95}
{"Sequence": "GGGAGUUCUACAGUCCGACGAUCUCCUAGGAAAAUUUAAAGAUGACAGGCAGGGGAGAAGAUGCAUAUCAAAAGCUUGGCUUUAAAGUCUAAGGGAGUUUUAGAUCAAAAACUAGCUAUCACUUCCUGAGUGUUGGAAUUCUCGGGUGCCAA", "RBNS enrichment (R)": 1.22}
{"Sequence": "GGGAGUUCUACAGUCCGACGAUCCCACAUUCACAUUCCCCUCCCCCUGUGGUCCAGUGAAGCCUCCGGACCCCAGGCUCUGCUCUGCCCUGCCCUGCACCCCCCUCGUCAGAAGUACAUGAGGGGCGCAGAGAUGGAAUUCUCGGGUGCCAA", "RBNS enrichment (R)": 0.935}
{"Sequence": "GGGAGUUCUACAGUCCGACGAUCUUUUUAUGUAUUCCUGUUUAUUUAUUUACUGCCACGCUACUGAUAUUCAGACCUUCAUGAUCAUCCAUCUGGUGAGCAGAGCUUCAUUUGUAUAUAACACUUUCAGAGCCUGGAAUUCUCGGGUGCCAA", "RBNS enrichment (R)": 0.539}
{"Sequence": "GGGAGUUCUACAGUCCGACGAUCCUACACCCCGCUUCUCCCGGACUCUCCCAGCGGACAGCCCCCCAGCCCCACAGCCUGAGCCUCCCAGCUGCCAUGUGCCUGUUGCACACCUGCACACACGCCCUGGCACAUGGAAUUCUCGGGUGCCAA", "RBNS enrichment (R)": 0.822}
{"Sequence": "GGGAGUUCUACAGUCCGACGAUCAGGUUUUUACCAAUUUCUAGAGCAGUUCAAACCCUAAGUGCUCAAGCGCUUACACAUCCCCUCUGGUGCUUGGUUGAACAAGGGAAUCACGAGACAAUGAAAAUGCAGAGUGGAAUUCUCGGGUGCCAA", "RBNS enrichment (R)": 0.292}
{"data": "Series 4", "target": "Ras GTPase-activating protein-binding protein 1, RRM domain (G3BP1, Homo sapiens, UniProt Q13283)", "technique": "RNA Bind-n-Seq", "molecule type": "RNA", "medium": "in vitro", "tested at": "1 µM", "setting": "whole 134-nt RNA, ends assumed", "together with": "150 mM KCl", "relative to": "input library", "direction": "higher = stronger binding", "UniProt Q13283, sequence (whole entry, looked up)": "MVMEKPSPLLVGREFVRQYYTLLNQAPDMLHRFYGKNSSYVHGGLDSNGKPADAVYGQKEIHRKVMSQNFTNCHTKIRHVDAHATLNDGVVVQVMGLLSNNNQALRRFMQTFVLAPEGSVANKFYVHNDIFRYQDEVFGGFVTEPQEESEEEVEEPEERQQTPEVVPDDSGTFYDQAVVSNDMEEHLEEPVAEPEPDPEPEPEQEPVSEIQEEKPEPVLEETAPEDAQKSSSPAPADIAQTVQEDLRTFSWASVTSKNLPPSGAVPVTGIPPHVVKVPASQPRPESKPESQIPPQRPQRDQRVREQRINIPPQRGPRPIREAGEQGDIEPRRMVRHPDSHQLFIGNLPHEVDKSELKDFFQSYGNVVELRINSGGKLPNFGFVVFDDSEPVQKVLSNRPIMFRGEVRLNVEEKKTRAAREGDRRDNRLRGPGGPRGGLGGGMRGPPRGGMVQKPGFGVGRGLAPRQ"}
{"Sequence": "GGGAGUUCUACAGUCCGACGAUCCAAGUCCUGUGCUACACAUCGUAUGUACCGAAUCGGGGCCGGGCCGGGGCCGGGGAAAGUAUUAUGUUACGCCGUUCGGAUCUGCACUUCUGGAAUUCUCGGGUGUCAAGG", "log2 enrichment": -1.16}
{"Sequence": "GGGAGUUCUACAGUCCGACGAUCCAAGUCCUGUGCUACACAUCGUAUGUACCGAAUCGGGAAAAAAAGGGUGGGUGGGAAAGUAUUAUGUUACGCCGUUCGGAUCUGCACUUCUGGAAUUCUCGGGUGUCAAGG", "log2 enrichment": 0.903}
{"Sequence": "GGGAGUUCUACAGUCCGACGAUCCCUGUGCUACACAUCGUAUGUACCGAAUCGGGGUUUUUUGGGGUUUUUUGGGUUUUUUGGGAAAGUAUUAUGUUACGCCGUUCGGAUCUGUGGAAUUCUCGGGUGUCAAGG", "log2 enrichment": -0.167}
{"Sequence": "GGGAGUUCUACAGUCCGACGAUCGUCCUGUGCUACACAUCGUAUGUACCGAAUCGGGGAAAGGGGAAAGGGGUUUUUGGGGAAAGUAUUAUGUUACGCCGUUCGGAUCUGCACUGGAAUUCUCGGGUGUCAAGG", "log2 enrichment": 1.45}
{"Sequence": "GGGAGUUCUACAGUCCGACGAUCUAACUUUUGAGGAGGAUCUGAUGGAUAUGGCAGUGGACGUGGAUUUGGGGAUGGCUAUAAUGGGUAUGGAGGAGGACCUGGAGGUGGCAAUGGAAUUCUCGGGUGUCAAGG", "log2 enrichment": -0.718}
{"Sequence": "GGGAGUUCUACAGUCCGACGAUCUCCUGUGCUACACAUCGUAUGUACCGAAUCGGGGUUUUUGGGGUGGGGAAAAAAAGGGGAAAGUAUUAUGUUACGCCGUUCGGAUCUGCAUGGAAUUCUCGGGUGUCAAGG", "log2 enrichment": 0.692}
{"Sequence": "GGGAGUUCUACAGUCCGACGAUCUCCUGUGCUACACAUCGUAUGUACCGAAUCGGGGAAAGGGGAAAAAGGGGAAAAAGGGGAAAGUAUUAUGUUACGCCGUUCGGAUCUGCAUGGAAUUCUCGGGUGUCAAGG", "log2 enrichment": 0.94}
{"Sequence": "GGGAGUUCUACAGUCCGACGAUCACCAUGCAGGUGGGCAUCUUUGGGAAGUGGGGCAAGGGGGGGAUAGGGAUGGGGGUAACACUUUGGGAACAGGUGGUCCCAGGUCGUUUCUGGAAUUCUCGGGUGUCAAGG", "log2 enrichment": 1.02}
{"note": "Excerpt of the above (series 2):"}
{"Compound": "CO[C@H]1C[C@@H]2CC[C@@H](C)[C@@](O)(O2)C(=O)C(=O)N2CCCC[C@H]2C(=O)O[C@H]([C@H](C)C[C@@H]2CC[C@@H](O)[C@H](OC)C2)CC(=O)[C@H](C)/C=C(\\C)[C@@H](O)[C@@H](OC)C(=O)[C@H](C)C[C@H](C)/C=C/C=C/C=C/1C", "remaining activity": "123%"}
{"Compound": "COc1ccc(CNC(=O)Nc2ncc([N+](=O)[O-])s2)cc1", "remaining activity": "101%"}
{"Compound": "O=C(Nc1cccc(Nc2cc(Nc3cccc(C(F)(F)F)c3)ncn2)c1)C1CC1", "remaining activity": "104%"}
{"Compound": "Nc1[nH]nc2nc3ccccc3nc12", "remaining activity": "94.7%"}
